Measured values gathered from unrelated publications.
Compare with care: the assays were run in different laboratories. Values joined by “and” are separate records of one study, mostly repeats; a detail may differ. ± gives the spread as reported.

SMILES | cell line | effect on | technique | matrix | time | setting | IC50
Cc1cc(Oc2nc(N3CC[C@@H](c4ccncc4)C3)ncc2F)[nH]n1 | SW-620 | cell proliferation | – | colon cancer | – | – | 52.5 µM
Cc1cc(Nc2nc(C[C@@]3(C(=O)O)CCN(Cc4cccc(Cl)c4F)[C@H](C)C3)cc(C)c2F)[nH]n1 | HCC1143 | cell growth or viability | ATP luminescence | – | 5 days | – | 0.0952 µM
CC(=O)N[C@H](C(=O)N[C@@H](CCCNC(=N)N)C(=O)N[C@@H](CCCCN)C(=O)N[C@@H](CCCNC(=N)N)C(=O)N[C@@]1(C)CCCC=CCCC[C@@](C)(C(=O)N[C@@H](CC(C)C)C(=O)N[C@@H](CCC(N)=O)C(=O)N[C@@H](CCC(=O)O)C(=O)N[C@@H](CCCNC(=N)N)C(=O)N[C@@H](CCC(=O)O)C(=O)N[C@@H](CC(C)C)C(=O)N[C@H](C(=O)N[C@@H](CCC(=O)O)C(N)=O)C(C)C)NC(=O)[C@H](CCCNC(=N)N)NC(=O)[C@H](CCCNC(=N)N)NC(=O)[C@H](CC(C)C)NC1=O)C(C)C | H2030, wild-type EGFR | – | – | – | – | – | 53.4 µM and 37.1 µM
O=C(O)c1ccc([S][Au][PH](c2ccccc2)(c2ccccc2)[c-]2cccc2)cc1.[Fe+2].c1cc[cH-]c1 | renal proximal tubule cells | cytotoxicity | XTT | – | 24 h | – | 3.91 ± 0.61 µM
CC(=O)N[C@H](C(=O)N[C@@H](CCCNC(=N)N)C(=O)N[C@@H](CCCCN)C(=O)N[C@@H](CCCNC(=N)N)C(=O)N[C@H](C(=O)N[C@@H](CC(C)C)C(=O)N[C@@H](CCCNC(=N)N)C(=O)N[C@@]1(C)CCCC=CCCC[C@@](C)(C(=O)N[C@@H](CCCNC(=N)N)C(=O)N[C@@H](CCC(=O)O)C(=O)N[C@@H](CC(C)C)C(=O)N[C@H](C(=O)N[C@@H](CCC(=O)O)C(N)=O)C(C)C)NC(=O)[C@H](CCC(N)=O)NC(=O)[C@H](CC(C)C)NC(=O)[C@H](CC(C)C)NC1=O)[C@@H](C)O)C(C)C | SK-N-MC (no EGFR or ErbB2-4) | cell viability | ATP luminescence | – | 18 h | – | > 10 µM
C1N2CN3CN1CP(C2)C3.COc1ccc(C(O)=CC(=O)c2ccc(C(C)(C)C)cc2)cc1.Cc1ccc(C(C)C)cc1.[Ru+2] | HL-60 | cytotoxicity | – | – | – | dark | 0.14 µM
CC(=O)N[C@H](C(=O)N[C@@H](CCCNC(=N)N)C(=O)N[C@@H](CCCCN)C(=O)N[C@@H](CCCNC(=N)N)C(=O)N[C@H](C(=O)N[C@@]1(C)CCCC=CCCC[C@@](C)(C(=O)N[C@@H](CCC(N)=O)C(=O)N[C@@H](CCC(=O)O)C(=O)N[C@@H](CCCNC(=N)N)C(=O)N[C@@H](CCC(=O)O)C(=O)N[C@@H](CC(C)C)C(=O)N[C@H](C(=O)N[C@@H](CCC(=O)O)C(N)=O)C(C)C)NC(=O)[C@H](CC(C)C)NC(=O)[C@H](CCCNC(=N)N)NC(=O)[C@H](CCCNC(=N)N)NC1=O)[C@@H](C)O)C(C)C | H1975 (EGFR L858R/T790M) | cell viability | ATP luminescence | – | 18 h | – | > 100 µM
N=C(N)NCCC[C@H](N)C(=O)N[C@@H](CC(=O)N[C@@H](Cc1ccccc1)C(=O)O)c1cccc2ccccc12 | MCF-10A | cell growth or viability | – | – | – | – | > 35 µM
CCOc1ccccc1-n1c(CN2CCNCC2)nc2ccccc2c1=O | Hs766T | cell growth or viability | – | – | 72 h | – | 0.103 µM
COc1cccc2c1C(=O)C=CC2=O | HFF-1 | cell growth or viability | MTT | – | 48 h | – | 14.1 µM
CC(=O)N[C@H](C(=O)N[C@@H](CCCNC(=N)N)C(=O)N[C@@H](CCCCN)C(=O)N[C@@H](CCCNC(=N)N)C(=O)NC(C)(C)C(=O)N[C@@H](CC(C)C)C(=O)N[C@@H](CCCNC(=N)N)C(=O)N[C@@H](CCCNC(=N)N)C(=O)N[C@@H](CC(C)C)C(=O)N[C@@H](CC(C)C)C(=O)N[C@@H](CCC(N)=O)C(=O)NC(C)(C)C(=O)N[C@@H](CCCNC(=N)N)C(=O)N[C@@H](CCC(=O)O)C(=O)N[C@@H](CC(C)C)C(=O)N[C@H](C(=O)N[C@@H](CCC(=O)O)C(N)=O)C(C)C)C(C)C | H2030 (wild-type EGFR) | cell viability | ATP luminescence | – | 18 h | – | > 100 µM
Cc1ccc(C(C)C)cc1.Cc1ccc(C(C)C)cc1.Cc1ccc(C(C)C)cc1.Cc1ccc(C(C)C)cc1.O=S(=O)(O)C(F)(F)F.O=S(=O)(O)C(F)(F)F.O=S(=O)(O)C(F)(F)F.O=S(=O)(O)C(F)(F)F.c1ccc2c3c4ccccc4c(c2c1)-c1cn(nn1)-c1cc[n+](cc1)[Ru-]1[O]c2ccc4c5c(ccc(c25)=[O+]1)=[O+][Ru-]([O]4)[n+]1ccc(cc1)-n1cc(nn1)-c1c2ccccc2c(c2ccccc12)-c1cn(nn1)-c1cc[n+](cc1)[Ru-]1[O]c2ccc4c5c(ccc(c25)=[O+]1)=[O+][Ru-]([O]4)[n+]1ccc(cc1)-n1cc-3nn1 | AGS | cell growth | MTT | – | 24 h | 20 µM preincubated in medium 48 h at 37 °C | 13.6 ± 0.11 µM
O=C(Cc1ccc(Br)cc1)N1CCN(CC(OCc2ccc3ccccc3c2)c2ccc(Cl)cc2Cl)CC1 (stereo not shown) | MDA-MB-468 | cell growth or viability | MTT | – | 24 h | – | 19.7 µM
CC(=O)N[C@H](C(=O)N[C@@H](CCCNC(=N)N)C(=O)N[C@@H](CCCCN)C(=O)N[C@@H](CCCNC(=N)N)C(=O)N[C@]1(C)CCCCCCC=CCCC[C@@](C)(C(=O)N[C@@H](CCCNC(=N)N)C(=O)N[C@@H](CCC(=O)O)C(=O)N[C@@H](CC(C)C)C(=O)N[C@H](C(=O)N[C@@H](CCC(=O)O)C(N)=O)C(C)C)NC(=O)[C@H](CCC(N)=O)NC(=O)[C@H](CC(C)C)NC(=O)[C@H](CC(C)C)NC(=O)[C@H](CCCNC(=N)N)NC(=O)[C@H](CCCNC(=N)N)NC(=O)[C@H](CC(C)C)NC1=O)C(C)C | SK-N-MC (no EGFR or ErbB2-4) | cell viability | ATP luminescence | – | 18 h | – | ~10 µM
Cc1cc(C)cc(COc2cc3c(cc2OCc2cc(C)cc(C)c2)C2CC(O)(Cc4cn(CCCCCCNC(=O)CNc5cccc6c5C(=O)N(C5CCC(=O)NC5=O)C6=O)nn4)CC(C)N2CC3)c1 (racemic) | ASPC1 | cell growth or viability | MTT | – | – | – | 1.05 µM
CC(C)C12OC1C1OC13C1(C)CCC4=C(COC4=O)C1CC1OC13C2OC(=O)CCC(=O)OC1OC(CO)C(O)C(O)C1O (stereo not shown) | SK-MEL3 | cell growth or viability | XTT | – | 47 h | – | 0.42 µM
